Assay results from different studies.
Compare with care: the assays were run in different laboratories. Values joined by “and” are separate records of one study, mostly repeats; a detail may differ. ± marks the error that the study gave.
PPO3: PPO3 (Agaricus bisporus, UniProt C7FF04)
UniProt C7FF04, sequence (whole entry, looked up): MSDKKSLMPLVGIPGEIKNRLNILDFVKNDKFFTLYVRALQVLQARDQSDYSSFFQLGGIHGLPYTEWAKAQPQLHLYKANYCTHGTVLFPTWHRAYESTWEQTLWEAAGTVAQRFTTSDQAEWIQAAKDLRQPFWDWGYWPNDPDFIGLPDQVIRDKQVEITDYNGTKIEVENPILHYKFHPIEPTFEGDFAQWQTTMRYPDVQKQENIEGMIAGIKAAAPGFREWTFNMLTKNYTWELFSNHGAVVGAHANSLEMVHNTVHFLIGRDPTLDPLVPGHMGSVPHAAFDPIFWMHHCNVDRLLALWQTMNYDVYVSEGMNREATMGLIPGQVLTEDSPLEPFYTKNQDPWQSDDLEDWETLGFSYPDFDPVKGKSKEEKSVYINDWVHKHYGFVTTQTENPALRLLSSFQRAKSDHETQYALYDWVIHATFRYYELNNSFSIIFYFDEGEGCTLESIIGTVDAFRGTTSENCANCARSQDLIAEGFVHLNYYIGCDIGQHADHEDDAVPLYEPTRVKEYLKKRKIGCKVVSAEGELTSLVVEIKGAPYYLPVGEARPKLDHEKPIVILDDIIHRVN
Gria2/Glutamate receptor 3: Gria2/Glutamate receptor 3 (Rattus norvegicus, UniProt P19491+P19492)
UniProt P19491, sequence (whole entry, looked up): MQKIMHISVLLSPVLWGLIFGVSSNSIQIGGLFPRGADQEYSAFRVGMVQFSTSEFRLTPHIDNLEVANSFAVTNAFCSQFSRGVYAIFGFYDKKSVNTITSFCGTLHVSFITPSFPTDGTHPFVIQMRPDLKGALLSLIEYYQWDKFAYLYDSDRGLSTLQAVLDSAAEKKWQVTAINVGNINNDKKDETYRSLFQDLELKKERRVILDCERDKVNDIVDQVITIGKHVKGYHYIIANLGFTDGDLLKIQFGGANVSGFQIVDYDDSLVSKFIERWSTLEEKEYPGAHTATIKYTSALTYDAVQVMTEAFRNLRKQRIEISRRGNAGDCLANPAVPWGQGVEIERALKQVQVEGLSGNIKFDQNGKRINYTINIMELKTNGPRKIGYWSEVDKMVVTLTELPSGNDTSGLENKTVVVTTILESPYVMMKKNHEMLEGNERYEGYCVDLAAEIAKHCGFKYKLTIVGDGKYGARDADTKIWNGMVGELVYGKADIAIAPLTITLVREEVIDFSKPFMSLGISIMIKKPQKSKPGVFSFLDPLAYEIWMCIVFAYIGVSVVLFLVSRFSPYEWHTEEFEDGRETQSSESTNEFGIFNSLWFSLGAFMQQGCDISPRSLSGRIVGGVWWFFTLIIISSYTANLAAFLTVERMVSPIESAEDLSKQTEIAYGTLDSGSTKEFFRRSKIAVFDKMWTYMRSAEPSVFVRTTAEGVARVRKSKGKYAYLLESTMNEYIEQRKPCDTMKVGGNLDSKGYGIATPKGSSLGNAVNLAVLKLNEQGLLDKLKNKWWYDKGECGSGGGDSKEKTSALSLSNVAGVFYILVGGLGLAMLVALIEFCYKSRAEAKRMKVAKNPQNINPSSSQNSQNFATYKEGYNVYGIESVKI
UniProt P19492, sequence (whole entry, looked up): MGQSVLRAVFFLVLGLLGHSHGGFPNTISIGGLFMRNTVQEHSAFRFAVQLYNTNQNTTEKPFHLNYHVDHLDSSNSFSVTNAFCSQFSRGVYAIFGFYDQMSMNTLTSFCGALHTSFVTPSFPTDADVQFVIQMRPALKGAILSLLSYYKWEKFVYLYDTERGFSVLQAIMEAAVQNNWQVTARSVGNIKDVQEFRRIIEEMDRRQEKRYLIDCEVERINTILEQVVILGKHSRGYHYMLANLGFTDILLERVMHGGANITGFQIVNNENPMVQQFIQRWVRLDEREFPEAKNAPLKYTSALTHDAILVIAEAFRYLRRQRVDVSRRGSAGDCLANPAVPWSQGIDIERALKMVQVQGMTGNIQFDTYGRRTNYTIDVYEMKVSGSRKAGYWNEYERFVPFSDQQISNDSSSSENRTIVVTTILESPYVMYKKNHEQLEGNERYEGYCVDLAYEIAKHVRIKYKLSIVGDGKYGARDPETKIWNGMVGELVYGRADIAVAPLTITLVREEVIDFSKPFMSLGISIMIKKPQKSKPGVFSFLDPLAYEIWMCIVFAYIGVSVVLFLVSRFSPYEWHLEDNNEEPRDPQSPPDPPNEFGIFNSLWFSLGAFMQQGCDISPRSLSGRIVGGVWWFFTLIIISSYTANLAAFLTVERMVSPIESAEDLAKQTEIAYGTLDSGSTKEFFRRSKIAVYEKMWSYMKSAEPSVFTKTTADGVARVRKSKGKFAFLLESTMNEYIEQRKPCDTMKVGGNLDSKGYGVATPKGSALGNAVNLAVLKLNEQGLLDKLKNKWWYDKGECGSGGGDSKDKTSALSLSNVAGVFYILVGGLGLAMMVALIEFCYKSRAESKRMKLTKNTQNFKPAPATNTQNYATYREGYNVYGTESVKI
USP14: Ubiquitin carboxyl-terminal hydrolase 14 (USP14, Homo sapiens, UniProt P54578)
UniProt Q9H4M9, sequence (whole entry, looked up): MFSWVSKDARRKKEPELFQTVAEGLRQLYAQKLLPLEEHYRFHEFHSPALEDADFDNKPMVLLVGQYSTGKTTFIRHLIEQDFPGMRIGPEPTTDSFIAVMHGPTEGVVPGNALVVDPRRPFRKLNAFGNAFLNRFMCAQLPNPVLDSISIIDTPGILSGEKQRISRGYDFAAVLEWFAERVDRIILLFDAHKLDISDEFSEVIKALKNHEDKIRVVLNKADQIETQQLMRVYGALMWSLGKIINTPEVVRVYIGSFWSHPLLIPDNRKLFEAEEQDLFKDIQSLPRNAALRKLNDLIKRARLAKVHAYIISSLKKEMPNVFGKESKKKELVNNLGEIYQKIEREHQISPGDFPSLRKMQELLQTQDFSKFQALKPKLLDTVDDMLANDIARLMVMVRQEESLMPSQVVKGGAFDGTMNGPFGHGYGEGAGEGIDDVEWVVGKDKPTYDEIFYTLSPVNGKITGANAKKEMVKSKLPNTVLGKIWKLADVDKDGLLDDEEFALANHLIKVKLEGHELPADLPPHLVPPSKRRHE
UniProt Q9FLB1, sequence (whole entry, looked up): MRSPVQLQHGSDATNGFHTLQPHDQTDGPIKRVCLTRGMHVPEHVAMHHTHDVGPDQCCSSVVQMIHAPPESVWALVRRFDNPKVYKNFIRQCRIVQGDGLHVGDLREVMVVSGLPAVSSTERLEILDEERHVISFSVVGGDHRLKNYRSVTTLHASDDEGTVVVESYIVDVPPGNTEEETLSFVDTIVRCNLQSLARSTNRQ
UniProt P54578, sequence (whole entry, looked up): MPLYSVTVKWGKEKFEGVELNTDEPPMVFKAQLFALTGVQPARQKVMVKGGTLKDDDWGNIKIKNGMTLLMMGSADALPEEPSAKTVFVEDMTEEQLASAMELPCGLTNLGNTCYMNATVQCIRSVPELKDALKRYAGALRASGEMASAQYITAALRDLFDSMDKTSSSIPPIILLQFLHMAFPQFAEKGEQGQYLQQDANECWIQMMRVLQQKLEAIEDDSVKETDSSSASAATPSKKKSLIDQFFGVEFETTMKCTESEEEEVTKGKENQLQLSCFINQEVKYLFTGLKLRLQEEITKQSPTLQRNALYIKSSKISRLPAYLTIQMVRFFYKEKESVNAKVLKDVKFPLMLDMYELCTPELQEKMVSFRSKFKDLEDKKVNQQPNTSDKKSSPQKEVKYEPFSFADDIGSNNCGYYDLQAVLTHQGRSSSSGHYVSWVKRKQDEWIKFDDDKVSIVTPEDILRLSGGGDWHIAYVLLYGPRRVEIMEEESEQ
UniProt Q9EP73, sequence (whole entry, looked up): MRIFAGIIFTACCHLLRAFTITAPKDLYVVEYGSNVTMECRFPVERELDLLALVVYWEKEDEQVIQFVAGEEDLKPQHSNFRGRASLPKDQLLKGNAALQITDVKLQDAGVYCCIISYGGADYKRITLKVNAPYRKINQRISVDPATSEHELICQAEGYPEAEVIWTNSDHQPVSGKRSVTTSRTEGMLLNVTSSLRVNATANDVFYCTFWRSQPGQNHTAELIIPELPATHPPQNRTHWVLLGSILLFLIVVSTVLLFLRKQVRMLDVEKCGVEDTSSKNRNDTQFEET
UniProt Q80UX8, sequence (whole entry, looked up): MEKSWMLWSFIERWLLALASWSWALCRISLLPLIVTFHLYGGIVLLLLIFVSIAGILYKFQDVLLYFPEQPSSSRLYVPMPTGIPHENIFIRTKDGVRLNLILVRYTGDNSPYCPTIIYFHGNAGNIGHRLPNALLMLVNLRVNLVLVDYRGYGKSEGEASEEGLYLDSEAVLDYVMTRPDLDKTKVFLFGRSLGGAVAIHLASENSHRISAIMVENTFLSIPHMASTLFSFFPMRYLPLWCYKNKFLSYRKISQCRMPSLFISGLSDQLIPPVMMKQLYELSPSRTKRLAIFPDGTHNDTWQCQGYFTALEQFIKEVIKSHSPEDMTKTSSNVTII
UniProt Q06180, sequence (whole entry, looked up): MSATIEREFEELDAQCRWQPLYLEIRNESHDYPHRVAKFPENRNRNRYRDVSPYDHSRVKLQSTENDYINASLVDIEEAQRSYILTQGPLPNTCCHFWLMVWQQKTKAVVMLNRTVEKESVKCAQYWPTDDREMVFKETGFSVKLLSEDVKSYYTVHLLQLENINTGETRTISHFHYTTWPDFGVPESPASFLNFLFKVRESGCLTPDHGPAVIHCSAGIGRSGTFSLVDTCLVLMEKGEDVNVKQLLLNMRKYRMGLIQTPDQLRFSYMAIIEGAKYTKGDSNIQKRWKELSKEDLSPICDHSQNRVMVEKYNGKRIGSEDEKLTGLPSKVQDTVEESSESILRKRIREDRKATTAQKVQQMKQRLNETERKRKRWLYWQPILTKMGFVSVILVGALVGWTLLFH
UniProt Q99720, sequence (whole entry, looked up): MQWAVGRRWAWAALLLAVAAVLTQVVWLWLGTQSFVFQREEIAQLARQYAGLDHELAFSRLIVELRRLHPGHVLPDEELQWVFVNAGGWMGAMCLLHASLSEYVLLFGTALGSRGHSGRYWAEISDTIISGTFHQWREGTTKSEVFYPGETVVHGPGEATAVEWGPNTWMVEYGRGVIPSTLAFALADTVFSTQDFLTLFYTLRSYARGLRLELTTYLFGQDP

Structure (SMILES)	target	assay	system	setting	scale	quantity	result
O=[N+]([O-])c1cc(Br)cc([N+](=O)[O-])c1NS(=O)(=O)c1ccc(Br)cc1	PYL5, with HAB1 (Arabidopsis thaliana, UniProt Q9FLB1)	antagonist	–	80 µM, with: ABA 5 µM	higher = more HAB1 activity	HAB1 phosphatase activity	0.113 a.u. and 0.11 a.u. and 0.109 a.u.
Clc1ccc(-c2cc(CN3c4ccccc4C=Cc4ccccc43)on2)cc1	PPO3	enzyme activity, inhibitor	–	concentration not given	–	apparent Km	7.62 mM
CCCCCCCCCCCCC/C=C/C=O	60 kDa heat shock protein, mitochondrial (Homo sapiens, UniProt P10809)	competitive isoTOP-ABPP, item: HSPD1 cysteine peptide	proteome, soluble, MDA-MB-231	100 µM, with: iodoacetamide probe	baseline: DMSO over compound-treated, higher = stronger cysteine blockade	isoTOP-ABPP competition ratio	1.1
O=C(Nc1cc(C(=O)Nc2ccc(S(=O)(=O)O)cc2S(=O)(=O)O)cc(C(=O)Nc2ccc(S(=O)(=O)O)cc2S(=O)(=O)O)c1)Nc1cc(C(=O)Nc2ccc(S(=O)(=O)O)cc2S(=O)(=O)O)cc(C(=O)Nc2ccc(S(=O)(=O)O)cc2S(=O)(=O)O)c1	P2X purinoceptor 1 (P2RX1, Homo sapiens, UniProt P51575)	antagonist, calcium influx	–	1 nM, with: submaximal α,β-methylene ATP	baseline: ionomycin response	calcium influx	96.9%
N=C(N)NCCS(=O)(=O)O	SLC6A6 (Homo sapiens, UniProt P31641, Y138A)	binding, microscale thermophoresis	–	125 µM, room temperature, with: 50 nM labelled protein	higher = more binding	normalised MST signal	0.0107
COC(=O)Cc1cc2c(cc1C(=O)c1ccc(Cl)cc1Cl)OCO2	Gria2/Glutamate receptor 3	glutamate-evoked current, whole-cell patch clamp	HEK-293T	concentration not given, weighted tau, 1 ms pulse, with: glutamate	–	deactivation time constant	3.2 ± 0.2 ms
CCCCCC=CC=C1C(=O)C=CC1CC=CCCCC(=O)O (stereo not drawn)	Ketosamine-3-kinase, C24 (FN3KRP, Homo sapiens, UniProt Q9HA64)	competitive isoTOP-ABPP	proteome, soluble, MDA-MB-231	100 µM, 60 min, with: iodoacetamide probe	baseline: DMSO over compound-treated, higher = stronger cysteine blockade	isoTOP-ABPP competition ratio	1.7
CC[C@H](C)[C@H](NC(=O)[C@H](CC(=O)O)NC(=O)[C@H](CC(=O)O)NC(=O)[C@@H](N)CC(=O)O)C(=O)N[C@@H](C)C(=O)N[C@@H](C)C(=O)N[C@@H](CC(C)C)C(=O)N[C@@H](CCCNC(=N)N)C(=O)N[C@@H](Cc1c[nH]c2ccccc12)C(=O)NCC(=O)N[C@@H](CCCNC(=N)N)C(=O)N1CCC[C@H]1C(=O)N[C@H](C(=O)NCC(=O)N[C@@H](CCCNC(=N)N)C(=O)N[C@@H](CCCNC(=N)N)C(=O)N[C@@H](CCCNC(=N)N)C(=O)N[C@@H](CCCNC(=N)N)C(=O)N1CCC[C@H]1C(=O)N[C@H](C(=O)N[C@@H](CCCNC(=N)N)C(=O)N[C@H](C(=O)N[C@@H](Cc1ccc(O)cc1)C(=O)N1CCC[C@H]1C(=O)O)C(C)C)C(C)C)C(C)C	N-alpha-acetyltransferase 80 (Naa80, Drosophila melanogaster, UniProt Q59DX8, S98A)	acetyltransferase activity, substrate	–	S88A mutant, with: [14C]acetyl-CoA	–	Km	1.11 ± 0.24 mM
C[C@H](NC(=O)CN)C(=O)NCC(=O)N[C@@H](C)C(=O)N[C@@H](C)C(=O)NCC(=O)NCC(=O)N[C@@H](C)C(=O)NCC(=O)NCC(=O)NCC(=O)NCC(=O)NCC(=O)NCC(=O)NCC(=O)N[C@@H](CCCCNC(=O)CCCC[C@@H]1SC[C@@H]2NC(=O)N[C@@H]21)C(N)=O	Cd274 (Mus musculus, UniProt Q9EP73)	flow cytometry, item: Cd274	–	concentration not given, 6 h	baseline: 0 h	relative surface expression	0.93 and 0.966 and 0.977
OC1CCCCC1N1CCC(c2ccc(Br)cc2)CC1 (racemic)	SIGMAR1 (Homo sapiens, UniProt Q99720)	–	rat liver (sigma2), human sigma1	–	baseline: Ki sigma2 over Ki sigma1	selectivity ratio	2.7
COc1ccc(C(/C=C\CCN2CCCC(C(=O)O)C2)(c2ccc(OC)cc2)c2ccc(OC)cc2)cc1 (stereo not drawn)	SLC6A9 (Homo sapiens, UniProt P48067)	cell-free assay	–	1 µM	–	remaining signal	66.9%
Cc1cc(C(=O)NN=C2CC(=O)c3ccccc32)c(C)o1	USP14	enzyme activity, inhibitor	–	17 µM	–	inhibition	25%
COC(=O)Cc1cc2c(cc1C(=O)c1cccc(Br)c1)OCO2	Gria2/Glutamate receptor 3	glutamate-evoked current, whole-cell patch clamp	HEK-293T	concentration not given, pH 7.4, holding potential -60 mV, with: 10 mM glutamate	–	current amplitude	211 ± 17 pA
Cc1cc(NC(=O)c2cccc(N)c2)ccc1Nc1nccc(-c2cccnc2)n1	MAPK9 (Homo sapiens, UniProt P45984)	enzyme activity, inhibitor	–	4.938 µM, unit not given	baseline: vehicle	remaining activity	0.321
CC(C=CC=C(C)C=CC1=C(C)CCCC1(C)C)=CC=O	Rhodopsin (RHO, Homo sapiens, UniProt P08100, T17M)	ER retention, immunostaining co-localization, item: opsin with calnexin	COS-7 transfected T17M	10.00 µM	–	Pearson correlation coefficient	0.46
NC(=O)C[C@@H]1NC(=O)[C@H](Cc2ccc(O)cc2)NC(=O)CNC(=O)CNC(=O)[C@H](CCC(=O)O)NC(=O)[C@H](CCC(=O)O)NC(=O)[C@H](Cc2ccccc2)NC(=O)[C@@H]2CCCN2C1=O	EH domain-containing protein 1, EH domain (Homo sapiens, UniProt Q9H4M9)	peptide binding, ITC	–	concentration not given, 0 mM NaCl	–	binding stoichiometry	1.03 and 1.05 and 1.04
CC(C)[C@@H]1NC(=O)[C@H](Cc2ccccc2)NC(=O)CSC[C@@H](C(N)=O)NC(=O)[C@H](CCC(=O)O)NC(=O)[C@H](CO)NC(=O)[C@H](Cc2c[nH]c3cccc(Cl)c23)NC(=O)[C@H](C2CCCCC2)NC(=O)[C@H](C(C)C)NC(=O)[C@H](Cc2ccc(O)cc2)NC(=O)[C@H](CC(=O)O)NC(=O)[C@H](Cc2c[nH]c3ccccc23)NC(=O)[C@H](Cc2ccc(N)nc2)NC(=O)[C@H](Cc2c[nH]c3ccc(Cl)cc23)NC(=O)[C@H](CCC(=O)O)NC1=O	Interleukin-1 receptor-like 2 (IL1RL2, Homo sapiens, UniProt Q9HB29)	reporter gene (SEAP), inhibitor, HEK-Blue IL-36R reporter	HEK-Blue IL-36R cells	0.41 µM, 6 h, with: IL-36γ 10 ng/mL	–	remaining activity	99.8%
O=C(O)Cc1cc2c(cc1C(=O)c1cccc(Cl)c1)OCO2	Gria2/Glutamate receptor 3	glutamate-evoked current, whole-cell patch clamp	HEK-293T	concentration not given, weighted tau, 1 ms pulse, with: glutamate	–	deactivation time constant	9.3 ± 0.5 ms
O=c1c(=NNc2nnn[nH]2)c(=O)c2ccccc12	USP14	enzyme activity, inhibitor	–	17 µM	–	inhibition	74%
C=C1C[C@@]2(C(=O)OC)C=C(C(=O)Nc3cccc(C(=O)Nc4ccc(Nc5nccc(-c6cccnc6)n5)c(C)c4)c3)C(=O)[C@@H]1C2	MAPK8 (Homo sapiens, UniProt P45983)	kinase activity, inhibitor	–	0.1829 µM, unit not given, with: 10 mM glutathione	baseline: no inhibitor	remaining activity	0.432
O=C(/C=C/c1ccccc1)Nc1cc(-c2ccnc(N3CCC(CO)CC3)c2)ccn1	Nuclear receptor subfamily 4 group A member 1 (NR4A1, Homo sapiens, UniProt P22736)	SPR	–	10.0 µM	–	binding response	81.4 RU
CC[C@H](C)[C@H](NC(=O)[C@@H](NC(=O)[C@@H](NC(=O)[C@@H](NC(=O)[C@H](CCCNC(=N)N)NC(=O)[C@H](CCC(=O)O)NC(=O)[C@H](CCC(=O)O)NC(=O)[C@H](C)NC(=O)[C@H](CCC(=O)O)NC(=O)CNC(=O)[C@H](C)NC(=O)CN)C(C)C)C(C)C)C(C)C)C(=O)N[C@@H](CC(=O)O)C(=O)N[C@@H](CC(=O)O)C(=O)N[C@@H](CC(=O)O)C(=O)N[C@@H](CCC(=O)O)C(=O)N[C@@H](CC(=O)O)C(=O)N[C@@H](CC(=O)O)C(=O)N[C@@H](CC(=O)O)C(=O)N[C@@H](C)C(=O)N[C@@H](CCC(=O)O)C(=O)N[C@@H](CC(N)=O)C(=O)N[C@@H](CO)C(=O)N[C@@H](CO)C(=O)N[C@@H](CO)C(=O)N[C@@H](CCCNC(=N)N)C(=O)N[C@@H](Cc1ccc(O)cc1)C(=O)O	Small ubiquitin-related modifier 1 (Homo sapiens, UniProt P63165, C52A)	binding, ITC	–	pH 7.4, chimera with SUMO2 N-terminus	–	-TΔS	-14.7 ± 0.9 kcal/mol
Cn1c(=O)n(C2CCC(=O)NC2=O)c2ccc(C3CCN(CC(=O)Nc4cccc(CS(=O)(=O)N5CC[C@H](Nc6cccc(-c7sc(C(=O)O)c(OCC(=O)O)c7Cl)c6)CC5(C)C)c4)CC3)cc21 (stereo partly drawn)	Tyrosine-protein phosphatase non-receptor type 2 (Ptpn2, Mus musculus, UniProt Q06180)	degrader, Western blot	B16-F10	0.0001 µM	–	remaining protein	110% and 96.1%
COc1cc(Nc2nccc(-c3cnn4nc(OC)ccc34)n2)cc(C(F)(F)F)c1	PIK3CA (Homo sapiens, UniProt P42336, E542K)	binding	–	1 µM	–	remaining binding	100%
OC[C@H]1O[C@@H](Oc2cc3c(O)cc(O)cc3[o+]c2-c2cc(O)c(O)c(O)c2)[C@H](O)[C@@H](O)[C@H]1O	PPO3	fluorescence quenching	–	318 K	–	binding free energy ΔG	-7.443 ± 0.00956 kcal/mol
CC1=NN(c2ccccc2)C(=O)C1=C1C(=O)N(c2ccccc2)N=C1C	USP14	enzyme activity, inhibitor	–	17 µM	–	inhibition	93%
O=C(N1CCCC1)n1cc(-c2ccc(-c3ccccc3)cc2)nn1	Protein ABHD13 (Abhd13, Mus musculus, UniProt Q80UX8)	probe labelling, inhibitor, competitive ABPP-SILAC, item: Abhd13	mouse T cells	concentration not given, 4 h, in situ, single peptide	baseline: treated over DMSO, lower = more inhibition	SILAC ratio	1.19 and 1.15 and 1.3

Repeated from above:
Structure (SMILES)	target	assay	system	setting	scale	quantity	result
CC(C=CC=C(C)C=CC1=C(C)CCCC1(C)C)=CC=O	Rhodopsin (RHO, Homo sapiens, UniProt P08100, T17M)	ER retention, immunostaining co-localization, item: opsin with calnexin	COS-7 transfected T17M	10.00 µM	–	Pearson correlation coefficient	0.46
COC(=O)Cc1cc2c(cc1C(=O)c1ccc(Cl)cc1Cl)OCO2	Gria2/Glutamate receptor 3	glutamate-evoked current, whole-cell patch clamp	HEK-293T	concentration not given, weighted tau, 1 ms pulse, with: glutamate	–	deactivation time constant	3.2 ± 0.2 ms
